# Experimental data collected from several papers.
# A part holds a random share of what one study measured.

# Block 1 — method: protein binding microarray; form: double-stranded DNA, one strand shown; matrix: in vitro; concentration: not given; reference: not given; direction: higher = stronger binding
# Target: Histone acetyltransferase KAT6A, winged helix 1, GST fusion (KAT6A, Homo sapiens, UniProt Q92794, residues 1-85)
# Notes: 8-mer, flanks averaged, mean of 2 arrays, mostly near background
# Construct (chain): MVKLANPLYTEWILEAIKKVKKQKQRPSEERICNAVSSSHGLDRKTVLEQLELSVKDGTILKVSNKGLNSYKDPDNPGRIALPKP
Strand,E-score
ACCCCTAC,-0.203
AGAAGATG,-0.0515
CCTAAATC,-0.173
AGATAATG,-0.202
ATATCTTC,-0.188
ACCGCACC,0.236
ACATACGC,0.237
AGGTGTGA,-0.102
CCCTGGCA,-0.153
ACGACGTG,-0.0161
GCACATCA,0.0304
ACCCCGGT,0.0816
CAATTGAA,-0.0996
CTATGGTC,-0.126
ATATTGGA,-0.28
AAATAAGG,-0.104
GGTTTTTA,-0.149
ATTAAGGC,-0.0532
ATTAAAAC,0.026
AGGCATGG,0.1
GTTGGTCA,-0.112
AACAGAGA,-0.0641
GATCATGA,-0.151
CAATTGGC,-0.081
CCCTACCC,0.0561

# Block 2 — method: RNA Bind-n-Seq; form: RNA; matrix: in vitro; concentration: 365 nM; reference: no-protein control; direction: higher = stronger binding
# Target: RNA binding protein fox-1 homolog 2, RRM domain, GST-SBP tag (RBFOX2, Homo sapiens, UniProt O43251-10, residues 100-194)
# Notes: natural RNA segment, single round, ends assumed
# Shared flanks, not repeated: GGGAGUUCUACAGUCCGACGAUC … UGGAAUUCUCGGGUGCCAA
# Residues (chain): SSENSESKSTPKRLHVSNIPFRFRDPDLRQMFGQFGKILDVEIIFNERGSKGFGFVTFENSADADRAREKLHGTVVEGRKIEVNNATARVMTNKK
Strand,RBNS enrichment (R)
CGAAGCCACUGCUCCUGGGAGCACACAAGCUUCUCCCUGGAACAGCUCUUAGGAAAAGAGGCAAACCCACACCCAAAAGUACCUUGUUUUCCUUGGGGAAGAUGCGUGGA,0.23
UUGAUGUUAGCAAAUCAUGGAAUGUUCUAAGUCUCUGAGGGUUUACUGUGAAGUGUUGAGGACAGUGUUGAUGCCUAACUAGUUUUCUUAGAUGGAAACAGAGACAUUGA,0.506
GGCCGGCCUUCAGCGUCCGGUCAGGGAAGCGUGCAGCCCAAAUGGGCACUUGCAUGGGAGCCACAGAGGAGCGUCCCUGGGGAUUGUUGGGACCAUGCUGCCCCCACUCC,1.48
CAGAGGGCGGGGCACACCUCAGUUUUCUAUCACCUUCCUACCAGAGGGGAAAGUAACCUGAACUUUAAUGUCUUUUGGAACAAAACCAAAGUUUAAGAUUUGCCAUAUGA,0.555
GAGACCAUAGUUGUCUGGUCAGAAAAAUUAUAUUAAAUUAGUAAAUUCUAGAAGCUCUUUAAAAGGGAAGUUUUCCUUCUUCUCCAAUUAUAGGAGUUGAUUUUUACUUU,0.616
GACAACGCAGACACGCUCUACGGAGGCCUGCUGAUAAAGGGCUCAGCCUUGCCGUGUGCUGCUUCUCAUCACUGCACACAAGUGCCAUGCUUUGCCACCACCACCAAGCA,0.469
AAAAGAUUGCUUGCUACGACUGCAUCAGCGUCUGCACCUGCGUAAGGAGGAAGCUCACUCACUCAAGAGCACCUCCAUGUACCGCGUCACACUGGAAGGAGGCUAAGUCU,0.429
CCAACACAUCAAAUAAUGCAUUGAAUAUUUAUGAAAAAGUAUAUUUAUACUCUCAGAUAGUUUGCUCCACAAAUUUUCAUUUCGUGAUUCUGUAUAUAUUGCCCUGAACU,1.15
UUUUCAUAUCAUGUGCUGUAAAGUUUUCCUAAAUGAGGCUUUAACGUAAACACUGGUGACAUAAACCAUUCAUUGCUACGUUGCUUAUUGUGUUUUUAUGCUGUUUUAUA,0.774
GUUUGGGGAAUGCGGCCGCAUUCCCUGAGUCACCAGGAAUGUUAAAGUCAGUGGGAACGUGACUGCCCCAACUCCUGGAAGCUGUGUCCUUGCACCUGCAUCCGUAGUUC,0.816
UUAAGACUAUAAAGUACUACUGUAGGAUUGCAAUUUCCAUUCUUUUAAAUGGGUUAAAAAGAUGUUAAUAUAACAAUAUAUGAUAUAUAAACCUUAAGUGAAAUGAAAGA,0.565
AGAGACCCAGCCGGAGGGAUGCCAUUGCUGCGGGGUAGACUGAGUGCCAAGGCUCUUGGCACAGGACUCACAUCUGGGCCACUCAGCUUGACCGAAGGCUGUGUGUGAAA,0.58

# Block 3 — method: RNA Bind-n-Seq; form: RNA; matrix: in vitro; concentration: 200 nM; notes: whole 134-nt RNA, ends assumed; together with: 150 mM KCl; reference: input library; direction: higher = stronger binding
# Target: Ras GTPase-activating protein-binding protein 1, full length (G3BP1, Homo sapiens, UniProt Q13283)
# UniProt Q13283, sequence (whole entry, looked up): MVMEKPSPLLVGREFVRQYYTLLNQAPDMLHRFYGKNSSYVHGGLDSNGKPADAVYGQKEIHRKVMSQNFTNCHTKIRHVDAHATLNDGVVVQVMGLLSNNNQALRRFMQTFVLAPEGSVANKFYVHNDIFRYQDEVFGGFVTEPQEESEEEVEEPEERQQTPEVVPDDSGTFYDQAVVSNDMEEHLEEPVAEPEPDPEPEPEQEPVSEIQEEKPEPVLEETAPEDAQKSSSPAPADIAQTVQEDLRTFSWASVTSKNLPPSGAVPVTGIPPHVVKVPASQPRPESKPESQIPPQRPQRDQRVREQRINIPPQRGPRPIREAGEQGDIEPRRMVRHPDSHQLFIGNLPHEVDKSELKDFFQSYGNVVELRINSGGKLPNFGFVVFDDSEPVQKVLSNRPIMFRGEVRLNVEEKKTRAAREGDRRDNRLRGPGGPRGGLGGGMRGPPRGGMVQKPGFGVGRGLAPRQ
# Shared flanks, not repeated: GGGAGUUCUACAGUCCGACGAUC … UGGAAUUCUCGGGUGUCAAGG
Strand,log2 enrichment
GCAGGAACUAAAAACAAAUGGAAAUGCUUCGGAUAGUGGCAGGGGUGGGGGUUGCUAAGGAAAGGGUGGGAUGGGAGUGGGUAAAGAGUU,1.29
CCUGUGCUACACAUCGUAUGUACCGAAUCGGGGAAAAAAAGGGGAAAAAAAGGGGAGGGGAAAGUAUUAUGUUACGCCGUUCGGAUCUGC,0.329
CCUGUGCUACACAUCGUAUGUACCGAAUCGGGAAAAAAGGGAAAAAAGGGGAAAAAAGGGGAAAGUAUUAUGUUACGCCGUUCGGAUCUG,-0.367
UAUCCCCUAUGAGGCACCACGUAAGACCUCCUGCCCUUAGCUCUCUUGCUCACCACCCAAGAACCUCAGGACAGAAGCGAGAGCCCAUUG,0.908
CCUGUGCUACACAUCGUAUGUACCGAAUCGGGGAAAAAAAGGAAAAAAAGGGAAAAAAAGGAAAGUAUUAUGUUACGCCGUUCGGAUCUG,-0.564
CAAGUCCUGUGCUACACAUCGUAUGUACCGAAUCGGAAAAAGGAGGAAAAAAAGGAAAGUAUUAUGUUACGCCGUUCGGAUCUGCACUUC,-0.742
CUGUGCUACACAUCGUAUGUACCGAAUCGGGGUUUUUUUGGGGUUUUUUUGGGUUUUUUUGGAAAGUAUUAUGUUACGCCGUUCGGAUCU,-0.678
GUCCUGUGCUACACAUCGUAUGUACCGAAUCGGGUUUUUUUGGGUUUUUUUGGGUGGGAAAGUAUUAUGUUACGCCGUUCGGAUCUGCAC,-0.232
CAAGUCCUGUGCUACACAUCGUAUGUACCGAAUCGGGGCCCGGGGCCCGGGCCCGGAAAGUAUUAUGUUACGCCGUUCGGAUCUGCACUU,-0.828
GCAGGAAGUAAAAACAAAUGGAAAUGCUUCGGAUAGUGGCAGGGGUGGGGGUUGCUAAGGAAAGGGUGGGAUGGGAGUAGGUAAAGAGUU,0.704
GCAGGAAGUAAAAACAAAUGGAAAUGCUUCGGAUAGUGGCAGGGGUGGGGGUUGCUAAGGAAAGGGUGGGAUGGGAGUGGGUAAAGAAAU,1.28
UGUGAGGUGGAUUUUGUUUAUUUUUUUAGCUCAUUUCCAGGGGUGGGAAUUUUUUUUUAAUAUGUGUCAUGAAUAAAGUUGUUUUUGAAA,-0.185
AAGUCCUGUGCUACACAUCGUAUGUACCGAAUCGGAAAAAAAGGUUUUUGGUUUGGAAAGUAUUAUGUUACGCCGUUCGGAUCUGCACUU,-1.72
GCAGGAAGUAAAAACAAAUGGAAAUGCUUCGGAUAGUGGCAGGGGUGGGGGUUGCUAAGGAAAGGGUGGCAUGGGAGUGGGUAAAGAGUU,0.815

# Block 4 — method: aptamer microarray, sandwich; form: DNA with 2'F-ANA; matrix: in vitro; concentration: 200 nM; together with: Cy3 exosite-II aptamer, 400 nM; direction: higher = stronger binding; strand: GGTTGGTGTGGTTGG
# Target: Prothrombin, mature alpha-thrombin (F2, Homo sapiens, UniProt P00734)
# Notes: whole 15-mer aptamer, many near background
Modification,mean fluorescence intensity [a.u.]
2'F-ANA at 1 2 8 10 11 13 14 15,63.3
2'F-ANA at 9 12 13 14,189
2'F-ANA at 5 7 8 11 14 15,47.2
2'F-ANA at 6 7 11 12 14,196
2'F-ANA at 2 4 6 7 8 10 12 13 14,82.7
2'F-ANA at 1 2 3 8 9 10 11 13,82
2'F-ANA at 2 4 7 8 11 13,279
2'F-ANA at 3 4 5 6 11 12 14,52
2'F-ANA at 1 2 5 7 8 10 11 12 14 15,48.3
2'F-ANA at 3 4 8 9 10 15,261
2'F-ANA at 1 3 6 7 8 9 10 11 12 15,95.1
2'F-ANA at 1 4 7 8 13 14,55.5
2'F-ANA at 3 5 9 10 11 15,58.8
2'F-ANA at 7 10 11 13,199
2'F-ANA at 1 6 8 10 11 13,90.2
2'F-ANA at 1 3 6 9 11 13 14,70.6
2'F-ANA at 1 2 3 6 7 8 13 14 15,73.2
2'F-ANA at 2 3 7 9 11 12 15,891
2'F-ANA at 2 4 5 7 9 11 15,76.6
2'F-ANA at 1 3 4 6 8 9 13,139
2'F-ANA at 3 4 6 8 9 10 12,287

# Block 5 — organism: Saccharomyces cerevisiae; read-out: mating pheromone growth arrest; form: peptide; strain: no Cln2 overexpression; notes: peptide tiling library; direction: direction not given
# Method: pooled competitive growth deep sequencing
Molecule,enrichment score
KVKRRLDLDIDGLQKE,0.293
RRVLCFDS,-0.35
RKLHFEDEVT,0.261
LRRQLSFSED,0.263
LRRKLFLDGNGSIS,-0.418
GFGFLLFICKLTF,-0.473

# For quick reference, copied from above (block 5):
Molecule,enrichment score
KVKRRLDLDIDGLQKE,0.293
RRVLCFDS,-0.35
RKLHFEDEVT,0.261
LRRQLSFSED,0.263
LRRKLFLDGNGSIS,-0.418
GFGFLLFICKLTF,-0.473
